Measurements gathered from unrelated publications.
Every numbered part comes from another study and shows a few of its results, in no order.

Sample 1
Target: Histone acetyltransferase KAT6A, both winged helices, GST fusion (KAT6A, Homo sapiens, UniProt Q92794, residues 1-181)
Method: protein binding microarray
Form: double-stranded DNA, one strand shown
Matrix: in vitro
Concentration: not given
Setting: 8-mer, flanks averaged, mean of 2 arrays, mostly near background
Reference: not given
Reading: higher = stronger binding
Residues (chain): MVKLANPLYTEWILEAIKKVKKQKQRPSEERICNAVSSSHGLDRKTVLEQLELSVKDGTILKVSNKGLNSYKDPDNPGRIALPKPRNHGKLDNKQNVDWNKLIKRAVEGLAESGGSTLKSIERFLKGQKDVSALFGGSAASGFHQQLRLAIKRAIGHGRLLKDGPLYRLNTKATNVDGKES
Oligonucleotide	E-score
ACCAAGAC	-0.028
AGACAGCG	0.217
GAAAACAC	0.0237
ACGGTAGA	0.154
CCTTGGCC	-0.227
AGCGTCAC	0.0819
ACCGCAAC	0.0827
AGATGGGC	-0.062
AAATGTTC	-0.0925
AGATCGGA	0.108
CTATCGTC	0.00985
ATACACGC	0.196
AAGCGCGG	0.357
AGGCTCAG	-0.176
CACTCAAC	-0.172
GGCGCGGA	0.288
CCTAGTAA	-0.0853
GGCTCCCC	-0.12
ACCATACA	-0.059
CCTGCAGC	-0.0341
GCTGGCAC	-0.0832

Sample 2
Target: RNA binding protein fox-1 homolog 2, RRM domain, GST-SBP tag (RBFOX2, Homo sapiens, UniProt O43251-10, residues 100-194)
Method: RNA Bind-n-Seq
Form: RNA
Matrix: in vitro
Concentration: 365 nM
Setting: natural RNA segment, single round, ends assumed
Reference: no-protein control
Reading: higher = stronger binding
All sequences stand within: GGGAGUUCUACAGUCCGACGAUC … UGGAAUUCUCGGGUGCCAA
Residues (chain): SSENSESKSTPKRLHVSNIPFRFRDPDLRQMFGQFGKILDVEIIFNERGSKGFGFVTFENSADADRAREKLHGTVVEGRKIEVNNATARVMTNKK
Oligonucleotide	RBNS enrichment (R)
UUGGCACUCACUAGCUGCCCCUACAGCUUGCCUCUGGGCCUCAGAGAGGGGUGUUUCUGCCCGGGUUGCCCUCCUUCAGUGAGUCAGAAGAACCUUCUGGGCCUAGAGGC	0.402
UUACUCCAGUGUGUCUUGGCUUACACAAUUUAACAGCUUUCUGAUUUUAUUCACAUACAGUGAUGAAUCUUGCAUUGCAAAUUCAAAGUCUAAGUUAACAGUCUCCUAAA	0.335
AAAUUGGGCUGGAUUGUGCUUUGGUUAAUACAUCUUUCCCUAAAGAAGAUAAACACAAAAUCCAUUCCAGGUAGCUCGGCACCAACUAAGAAAAAAAGCACAAAGUUCUC	0.241
UAAAGUUUCUAAGGUGCUCCUCCUCAAACUCCAUUUUUACAAUAUCCGUAUUGUAAAAUUUUCAUUUUCAGUAACACCCAGUAGAUAAUUUUUCAAAGACGAUCCUCCUC	0.349
AUUGAAACUGUUCCUAUUUGCCCUGGGACGGUUUCUAUCUAUCAAAGGAAGGUUUUCACCUGUAGAAAGCCCCCUGCCUCCAGCCAAAUAGUCCCAUGCUGACUUUCUAU	0.569
GCCUUACACGCCAGGCAAGUGUGACCACUGAGCUAGGCUCCCGCCCCCUUUACUUUUUGAAGCCAUACAAUGGAUGUCUAUAUGUUGCCUUUUUGAAGAUUAGGUGGUUU	0.422
GGGUUCAUUUAUCUUUUAAGGAGUUUUACUUUUCUCUCCAGAGGGACCAGGUCUUCUUAUGCAGUGACAAGAGUGCGUAGUGUUUUCUUUGCAUACUGUUCAUCGCAGUA	0.255
GGAUAAAACGGGUUACUAAGAUGAAAUUGCCAAAAAAAAAAAAAAAUUUGUAACUAAUUUUGUACGUAUGAAUGAAAUCUUUGACCUCUGUCGAGGUUUGCAAAGACUGA	1.34
AGAGGGCUGUCACAGGUGAAUGGUUUGGGGAACCCUUCUUGGCAGAGUUUUAGCUGCCUUACUGAACAUUGUCCCAACAGAAAGUUCCUAUCGUUCUCCUUCCUUCUUGG	0.37
GGGACCCAGGUGGGACUUAGCAGUGAGUAUUGGAAGACUUGGGUUGAUCUCUUAGAAGCCAUGGGACCUCCUCCCUCAUUCAUCUUGCAAGCAAAUCCCAUUUCUUGAAA	0.553
ACUAGCAGGUUCUUUUUAAAAGAACAUUUGGUUUUUUUUAAACAUGUGAUUUUUAACACAUAUAUUUCUUCCAUAUUCAGAUUGGCAUUCAUAUAUGUAUCCAUUCUGUA	1.12
CACUGUGCUCACGACUGGAAAGUAGCCUUUUUCUUCUAUCAAUGUUUACCAUAAAGUUCCUUUCUCAGUAGAUUUUUCUUUCUUUUUUAAAAGAGGUGGUUGGCAAUUUA	0.537

Sample 3
Target: Sal-like protein 4, full length isoform B (SALL4, Homo sapiens, UniProt Q9UJQ4-2, residues 1-616)
Method: universal PBM
Form: double-stranded DNA, one strand shown
Matrix: in vitro
Concentration: not given
Setting: 8-mer, flanks averaged, mean of replicates
Reading: higher = stronger binding
Residues (chain): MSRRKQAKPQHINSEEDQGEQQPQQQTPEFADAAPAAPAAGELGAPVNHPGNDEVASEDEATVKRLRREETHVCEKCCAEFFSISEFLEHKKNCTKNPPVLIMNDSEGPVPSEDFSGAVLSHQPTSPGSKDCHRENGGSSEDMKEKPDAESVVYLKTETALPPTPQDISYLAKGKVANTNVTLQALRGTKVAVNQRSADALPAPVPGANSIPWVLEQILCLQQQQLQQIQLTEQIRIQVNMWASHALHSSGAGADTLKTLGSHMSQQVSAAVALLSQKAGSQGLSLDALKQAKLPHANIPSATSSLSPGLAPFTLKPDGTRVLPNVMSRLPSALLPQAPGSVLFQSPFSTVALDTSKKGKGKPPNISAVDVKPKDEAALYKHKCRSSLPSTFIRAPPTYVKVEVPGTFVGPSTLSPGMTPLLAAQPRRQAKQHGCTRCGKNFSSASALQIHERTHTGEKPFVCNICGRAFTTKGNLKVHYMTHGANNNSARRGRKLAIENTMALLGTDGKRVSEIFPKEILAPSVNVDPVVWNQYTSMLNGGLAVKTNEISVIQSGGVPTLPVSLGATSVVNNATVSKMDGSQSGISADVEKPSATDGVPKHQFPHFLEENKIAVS
Oligonucleotide	E-score
TATTAGCA	0.279
CTAGGCCA	-0.188
ACACACGG	-0.279
GCGATCAA	-0.0573
CTGCAACC	-0.197
CGCAGTCA	-0.0626
AGGTCGGC	-0.114
ATACCGTC	0.11
AAGGATGT	-0.079
ACCTCTCT	-0.0899
GGCCCTAC	-0.308
CGTAACAG	-0.0309
AGATCACT	0.122
CACAAACG	0.0163
ACCTCCTG	-0.084
GTAGAAAA	0.135
AACCCTGT	-0.154
AAAGTTTA	0.269
CCGCCAAC	-0.313
ACAAGTTA	0.183
CAGGAGTC	-0.14
ACGTGGCA	-0.174
AAGCGTAG	-0.0887
CCCTCCCG	-0.263
CCACAAAG	-0.0105

Sample 4
Target: TATA-box-binding protein 1 (TBP1, Arabidopsis thaliana, UniProt P28147, residues 1-200, full length assumed)
Method: protein-binding microarray
Form: double-stranded DNA, one strand shown
Matrix: in vitro
Concentration: not given
Setting: k-mer, scored over probes, only values ≥0.25
Reading: higher = stronger binding
Residues (chain): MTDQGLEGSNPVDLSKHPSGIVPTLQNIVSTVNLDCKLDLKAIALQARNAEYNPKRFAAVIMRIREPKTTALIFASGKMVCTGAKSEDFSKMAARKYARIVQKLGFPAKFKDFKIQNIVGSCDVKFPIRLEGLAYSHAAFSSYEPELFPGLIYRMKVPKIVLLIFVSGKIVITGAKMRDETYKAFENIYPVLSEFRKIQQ
Oligonucleotide	E-score
CGTATAA	0.381
AGAATAT	0.306
ATAATGC	0.25
AAAAGAT	0.295
ACCTTTA	0.268
TCTTTAA	0.369
GCATATA	0.423
CATTAAG	0.252
AATTTAT	0.425
CGCTTTA	0.285
GGTATAA	0.394
CTTAAGA	0.35
ATGTTTA	0.264
ATATGAT	0.349
TATCAAA	0.298
ATTATGC	0.307
AGTTTTA	0.289
ATTTATC	0.383
ATAGTTA	0.275
CTTAAGC	0.305
ACATTAT	0.313
GGGTTTA	0.273
AGCTATA	0.294
AAAAATG	0.287
ATATAGG	0.422

Sample 5
Target: RING finger protein unkempt homolog, zinc fingers 1-6, GST-SBP tag (UNK, Homo sapiens, UniProt Q9C0B0, residues 30-357)
Method: RNA Bind-n-Seq
Form: RNA
Matrix: in vitro
Concentration: not given
Setting: RNA with constant flanks, ends assumed
Reference: input RNA pool
Reading: higher = stronger binding
All sequences stand within: GGGAGUUCUACAGUCCGACGAUC … CAACAGAGGAUUGAGCAUCA
Construct (chain): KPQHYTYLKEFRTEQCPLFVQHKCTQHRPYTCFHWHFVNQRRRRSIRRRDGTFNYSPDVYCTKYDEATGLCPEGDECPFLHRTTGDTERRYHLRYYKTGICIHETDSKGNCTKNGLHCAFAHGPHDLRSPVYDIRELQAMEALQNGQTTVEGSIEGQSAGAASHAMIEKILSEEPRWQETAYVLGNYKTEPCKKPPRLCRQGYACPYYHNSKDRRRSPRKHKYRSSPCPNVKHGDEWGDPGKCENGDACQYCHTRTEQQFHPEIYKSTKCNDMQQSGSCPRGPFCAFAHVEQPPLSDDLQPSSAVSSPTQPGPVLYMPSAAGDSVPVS
Oligonucleotide	bound/input enrichment [ratio]
GCUGGUCUUUUGGAAAAAAAAUGGACAUCUGUUAUUAGAUUACAAAAGAAGGUUAUGGAAUCCGAAUCAAAGCUAAAUGAAGCAAAAGAAGAAUUUACGUCAGGUGGACCUCUUGGUCAG	0.426
UGAGCGUCGGCGCCGGGGUUCGGUGGCCUCUAGUGAGAUCUGGAGGAUCCAAGGAUUCUGCCGCUACAAUGUUGUCAAGACUUUUUCGAAUGCAUGGCCUCUUUGUGGCCUCCCAUCCCU	0.088
GAAAAGAAGCAACAACUUCUUAGAGCAGCAACAGGAAAGGCCAUUUUAAAUGGAACCGACAGCAUAAACAAAGUGCUAGACCACUUCCGUCGAAAAGGAAUAAACCAGCAUGUUCAAAAU	0.0855
AUGGAACAUUUUGAUGCAUCACUUAGUACCUAUUUCAAGGCAUUGCUAGGCCCUCGAGAUACCCGAGUAAAAGGAUGGUUUCUUCUGGACAAUUAUAUACCCACAUUUAUCUGCUCUGUC	2.01
GCCUCUUGCCUUUUUUUUUAAUUUUAAAUUAUCUAAAUUUAUUGUUUGUUAUGGUGUCAACCGCAGUGUUUUUCUAUCAGUUUUGUCACUCCUCCUACCCCACCUUGGACUCGUUUGAGA	4.69
UGUUUGGAAGGAAUGAUUCUUGCAGCAAAAUCAGUUGAUGAAAGAAGAGACUCUCAAAUGGUGGCCGACUCCUUCAAAUCUGGUUUUGAACCUCCAGGAGACUUUCCAUUUGAAGAUUAC	0.14
GCAGUGGAAUGCAGUUAUAUUUGGACCAGAAGGGACACCUUUUGAAGAUGGUACUUUUAAACCCGUAAUAGAAUUUUCUGAAGAAUAUCCAAAUAAACCACCAACUGUUAGGUUUUUAUC	1.97
GACUUGGACCUUCCUGGGCUAGUGCAAAUAGCGGCAGUGGAGGCUCAAGAGGAAAGUUUGUCCGUGGAGGCAGUGGUAGAGGUCGUCAUGUACGCUCCUUUACACGAUAAAAAUCCUUUU	0.0667
AAUAUAUUACAGUUCAUUCCACAGAAAGCAUCCAAACCACCCAAAUGACCAAGGCAUAUACCGUAUUUGGAGGAAUCAGGGGUUUGGAAGGAGUAGGGAGGAGAAUGAAGGAAAAUGCAA	0.248
GAAGAGGAAAGAUUAGUAUCUCUUGUAUUUGGGCUUUUGAAACAAAGAAAACUUAAUUUUUCCGAAAUCUAUGGUGAAGAAAUGAUUAUUACAGCAAAGAACAUCAUUAAAGAGCGUGUG	0.524
CAUGGACAUCAUAAAAUGGAACUUCCAGAUUAUAGACAAUGGAAGAUAGAAGGGACACCAUCCGAAACUAUCCAGAAGAAGCUGGCUGCAAAAGGGCUAAGGGAUCCAUGGGGCCGCAAU	0.852

Excerpt of the above (sample 3):
Oligonucleotide	E-score
GGCCCTAC	-0.308
CGTAACAG	-0.0309
AGATCACT	0.122
CACAAACG	0.0163
ACCTCCTG	-0.084
GTAGAAAA	0.135
AACCCTGT	-0.154
AAAGTTTA	0.269
CCGCCAAC	-0.313
ACAAGTTA	0.183
CAGGAGTC	-0.14
